Results of several laboratories.
Parts stem from different laboratories: compare values within a part only. Values joined by “and” are separate records of one study, mostly repeats; a detail may differ.
Sequence of UniProt P24723 (whole entry, looked up): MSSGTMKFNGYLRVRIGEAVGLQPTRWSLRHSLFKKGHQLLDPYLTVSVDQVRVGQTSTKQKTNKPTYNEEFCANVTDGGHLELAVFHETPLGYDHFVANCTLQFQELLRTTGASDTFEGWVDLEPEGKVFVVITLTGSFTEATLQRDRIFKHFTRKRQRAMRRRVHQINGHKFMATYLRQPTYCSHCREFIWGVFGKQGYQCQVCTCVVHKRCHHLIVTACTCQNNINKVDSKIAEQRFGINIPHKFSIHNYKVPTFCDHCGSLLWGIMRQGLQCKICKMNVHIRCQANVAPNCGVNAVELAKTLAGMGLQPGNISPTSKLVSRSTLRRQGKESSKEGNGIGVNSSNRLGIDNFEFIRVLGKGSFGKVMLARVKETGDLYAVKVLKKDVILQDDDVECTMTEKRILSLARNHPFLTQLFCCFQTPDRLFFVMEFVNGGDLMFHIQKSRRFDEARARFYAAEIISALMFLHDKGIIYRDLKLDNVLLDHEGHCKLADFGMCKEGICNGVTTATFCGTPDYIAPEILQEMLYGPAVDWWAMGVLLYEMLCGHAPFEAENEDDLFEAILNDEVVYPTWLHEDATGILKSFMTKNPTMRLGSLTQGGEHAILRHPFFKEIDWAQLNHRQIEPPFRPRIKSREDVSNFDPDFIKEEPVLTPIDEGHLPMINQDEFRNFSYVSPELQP
Sequence of UniProt P9WI81 (whole entry, looked up): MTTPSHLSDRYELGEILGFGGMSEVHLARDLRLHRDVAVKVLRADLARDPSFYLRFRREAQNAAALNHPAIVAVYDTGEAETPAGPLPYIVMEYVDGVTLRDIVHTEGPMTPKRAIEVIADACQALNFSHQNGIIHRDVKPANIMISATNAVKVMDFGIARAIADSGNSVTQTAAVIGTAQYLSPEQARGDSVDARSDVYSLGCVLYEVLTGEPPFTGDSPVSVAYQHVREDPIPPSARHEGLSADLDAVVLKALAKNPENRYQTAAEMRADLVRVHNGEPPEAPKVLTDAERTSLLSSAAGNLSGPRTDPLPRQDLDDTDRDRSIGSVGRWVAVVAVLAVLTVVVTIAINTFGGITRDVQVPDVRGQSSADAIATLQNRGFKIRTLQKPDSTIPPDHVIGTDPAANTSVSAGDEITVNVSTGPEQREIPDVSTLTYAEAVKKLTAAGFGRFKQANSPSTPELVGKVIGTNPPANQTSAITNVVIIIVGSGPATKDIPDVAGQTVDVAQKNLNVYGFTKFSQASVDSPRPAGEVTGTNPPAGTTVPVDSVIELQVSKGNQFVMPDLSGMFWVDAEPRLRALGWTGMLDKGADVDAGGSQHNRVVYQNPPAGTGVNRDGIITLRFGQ
Sequence of UniProt P28223 (whole entry, looked up): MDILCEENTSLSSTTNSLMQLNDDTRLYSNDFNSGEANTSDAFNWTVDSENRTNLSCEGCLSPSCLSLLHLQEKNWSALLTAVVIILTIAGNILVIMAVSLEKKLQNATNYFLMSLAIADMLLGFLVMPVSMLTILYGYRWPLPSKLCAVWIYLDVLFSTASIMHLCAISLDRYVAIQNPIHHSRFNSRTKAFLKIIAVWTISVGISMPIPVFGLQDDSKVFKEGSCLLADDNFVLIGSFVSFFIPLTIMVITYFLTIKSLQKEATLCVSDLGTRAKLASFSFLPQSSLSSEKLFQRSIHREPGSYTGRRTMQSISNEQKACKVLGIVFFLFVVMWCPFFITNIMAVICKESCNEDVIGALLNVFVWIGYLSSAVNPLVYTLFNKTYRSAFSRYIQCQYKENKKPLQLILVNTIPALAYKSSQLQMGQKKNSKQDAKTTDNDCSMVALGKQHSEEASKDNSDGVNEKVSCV
Sequence of UniProt Q9UQM7 (whole entry, looked up): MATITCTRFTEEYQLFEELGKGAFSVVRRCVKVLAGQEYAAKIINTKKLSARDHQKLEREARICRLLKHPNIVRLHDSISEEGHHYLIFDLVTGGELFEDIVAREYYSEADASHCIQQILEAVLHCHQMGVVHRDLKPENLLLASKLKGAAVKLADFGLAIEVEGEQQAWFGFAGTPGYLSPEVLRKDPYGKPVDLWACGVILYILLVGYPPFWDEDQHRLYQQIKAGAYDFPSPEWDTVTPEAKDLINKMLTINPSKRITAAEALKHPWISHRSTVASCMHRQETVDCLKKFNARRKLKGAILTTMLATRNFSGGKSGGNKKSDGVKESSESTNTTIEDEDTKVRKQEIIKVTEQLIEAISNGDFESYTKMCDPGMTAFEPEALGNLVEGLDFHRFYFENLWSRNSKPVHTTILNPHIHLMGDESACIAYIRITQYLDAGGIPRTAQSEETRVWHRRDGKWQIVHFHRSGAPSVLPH

Block 1
Target: Beta-1 adrenergic receptor (ADRB1, Homo sapiens, UniProt P08588)
Sequence of UniProt P08588 (whole entry, looked up): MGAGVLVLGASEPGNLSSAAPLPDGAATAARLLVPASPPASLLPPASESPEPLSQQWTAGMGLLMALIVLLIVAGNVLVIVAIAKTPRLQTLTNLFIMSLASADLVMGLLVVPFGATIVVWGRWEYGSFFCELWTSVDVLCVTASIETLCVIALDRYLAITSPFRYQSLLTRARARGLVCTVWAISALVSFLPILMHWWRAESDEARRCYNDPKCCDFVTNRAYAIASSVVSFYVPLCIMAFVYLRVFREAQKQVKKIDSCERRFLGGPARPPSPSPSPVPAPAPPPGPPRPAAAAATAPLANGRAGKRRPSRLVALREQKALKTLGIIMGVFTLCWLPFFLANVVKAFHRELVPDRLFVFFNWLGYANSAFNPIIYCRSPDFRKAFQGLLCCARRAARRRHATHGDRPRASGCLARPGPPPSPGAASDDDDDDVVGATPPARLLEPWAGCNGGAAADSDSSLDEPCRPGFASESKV
Action: agonist
SMILES | EC50
Clc1cccc(N2CCNCC2)c1Cl | ≥ 100 µM
COc1ccc2[nH]cc(C3=CCN(CC(=O)N(C)Cc4ccccc4)CC3)c2c1 | ≥ 100 µM
Clc1ccccc1COc1cccc(N2CCNCC2)c1 | ≥ 100 µM

Block 2
Target: Serine/threonine-protein kinase 33 (STK33, Homo sapiens, UniProt Q9BYT3)
Sequence of UniProt Q9BYT3 (whole entry, looked up): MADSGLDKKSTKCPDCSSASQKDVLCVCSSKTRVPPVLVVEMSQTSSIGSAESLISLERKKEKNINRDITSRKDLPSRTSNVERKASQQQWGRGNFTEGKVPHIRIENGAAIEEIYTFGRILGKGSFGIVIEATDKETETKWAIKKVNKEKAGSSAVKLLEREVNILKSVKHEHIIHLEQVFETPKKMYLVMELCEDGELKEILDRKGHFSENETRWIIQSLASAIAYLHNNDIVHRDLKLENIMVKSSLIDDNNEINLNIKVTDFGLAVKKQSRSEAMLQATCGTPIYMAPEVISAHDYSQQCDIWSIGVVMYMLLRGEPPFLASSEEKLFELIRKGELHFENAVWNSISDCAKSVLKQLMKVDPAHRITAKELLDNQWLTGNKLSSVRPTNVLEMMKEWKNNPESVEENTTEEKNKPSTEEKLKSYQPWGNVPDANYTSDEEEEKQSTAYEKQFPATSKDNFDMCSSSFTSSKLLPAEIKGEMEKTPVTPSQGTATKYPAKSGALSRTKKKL
Observed: enzyme activity
Action: inhibitor
Technique: radiometric
Concentration: 0.5 µM
Compound | remaining activity [%]
O=C1NC(=O)c2c1c1c3ccccc3[nH]c1n1cncc21 | 52.3
CN1CCN(c2ccc3nc(-c4c(N)c5c(F)cccc5[nH]c4=O)[nH]c3c2)CC1 | 60.7
O=C1Cc2c([nH]c3ccc(Br)cc23)-c2ccccc2N1 | 103

Block 3
Target: Bromodomain-containing protein 4, BD1 (BRD4, Homo sapiens, UniProt O60885)
Observed: acetyl-histone H4 peptide binding
Technique: AlphaScreen displacement
Concentration: 50 µM
Compound | inhibition [%]
Cc1ccc(NC=C2C(=O)NC(=O)N(c3ccccc3)C2=O)cc1Cl | 20.8
CC(=O)c1cccc(NC=C2C(=O)NC(=O)N(c3ccccc3)C2=O)c1 | 9
Cc1ccc(NC=C2C(=O)NC(=O)N(C)C2=O)cc1 | 11.3

Block 4
Structure (SMILES): CC(C)S(=O)(=O)c1cc2c(Nc3ccc4sc(C5CCCC5)nc4c3)ccnc2cc1OCCO
cell line | test | conditions | viability
L929 | necroptosis protection, CCK-8 | 0.014 µM, added: TNF-α plus zVAD | 28.2%
L929 RIPK3 knockout | – | 1.563 µM | 98.5% and 95.1% and 91.4% and 99.8%
L929 RIPK3 knockout | – | 12.5 µM | 84.5% and 90.5% and 83.8% and 89.3%
L929 | CCK-8 | 6.25 µM, added: zVAD | 97% and 93.2% and 93.7% and 88.3%
L929 | CCK-8 | 25 µM, added: zVAD | 78.3% and 60.2% and 61.5% and 60.3% and 59.4%
L929 RIPK3 knockout | – | 25 µM | 71.6% and 71.8% and 75.3% and 73.4%
L929 | necroptosis protection, CCK-8 | 5 µM, added: TNF-α plus zVAD | 102%
L929 | CCK-8 | 6.25 µM | 90.8% and 93.7% and 97% and 85.9%
L929 RIPK3 knockout | – | 100 µM | 11.8% and 18.2% and 11.3% and 11.1%
L929 | CCK-8 | 1.563 µM | 100% and 98.6% and 95.9%
L929 RIPK3 knockout | – | 25 µM, added: zVAD | 72.8% and 72.3% and 71.1% and 71.4%

Mixed results
Structure (SMILES) | target | test | conditions | measurement | result
CCCCN(CCCC)C(=O)CN1C[C@H](c2cc(OC)c3c(c2)OCO3)[C@@H](C(=O)O)[C@@H]1CC(C)(C)CCC | pknB (Mycobacterium tuberculosis, UniProt P9WI81) | cell-free assay, competition with immobilised ligand | 1 µM | remaining binding | 85%
COc1cc2c3c(c1OC)Oc1ccc(cc1)C[C@@H]1c4c(cc(OC)c(OC)c4Oc4ccc(cc4)C[C@H]3N(C)CC2)CCN1C | CAMK2A (Homo sapiens, UniProt Q9UQM7) | enzyme activity, inhibitor | 10 µM | inhibition | -5%
O=C(NCc1ncc(C(F)(F)F)cc1Cl)c1ccc2c(c1)C1(CCS(=O)(=O)CC1)[C@@H](C1CC1)N2S(=O)(=O)c1ccc(F)cc1 | PRKCH (Homo sapiens, UniProt P24723) | cell-free assay, competition with immobilised ligand | 1 µM | remaining binding | 96%
O=C([C@H]1C[C@H](O)CN1c1ccc(Cl)cc1)N1CC2COCC(C1)N2Cc1ccc(Cl)cc1 | HTR2A (Homo sapiens, UniProt P28223) | binding, radioligand binding | 10 µM | inhibition | 7.31%

Excerpt of the above (mixed results):
Structure (SMILES) | target | test | conditions | measurement | result
COc1cc2c3c(c1OC)Oc1ccc(cc1)C[C@@H]1c4c(cc(OC)c(OC)c4Oc4ccc(cc4)C[C@H]3N(C)CC2)CCN1C | CAMK2A (Homo sapiens, UniProt Q9UQM7) | enzyme activity, inhibitor | 10 µM | inhibition | -5%
O=C(NCc1ncc(C(F)(F)F)cc1Cl)c1ccc2c(c1)C1(CCS(=O)(=O)CC1)[C@@H](C1CC1)N2S(=O)(=O)c1ccc(F)cc1 | PRKCH (Homo sapiens, UniProt P24723) | cell-free assay, competition with immobilised ligand | 1 µM | remaining binding | 96%
O=C([C@H]1C[C@H](O)CN1c1ccc(Cl)cc1)N1CC2COCC(C1)N2Cc1ccc(Cl)cc1 | HTR2A (Homo sapiens, UniProt P28223) | binding, radioligand binding | 10 µM | inhibition | 7.31%
